Measured values from different studies.
Every numbered part comes from another study and shows a few of its results, in no order. Positions count from the first letter of the parent shown.

Sample 1
Target: RING finger protein unkempt homolog, zinc fingers 1-6, GST-SBP tag (UNK, Homo sapiens, UniProt Q9C0B0, residues 30-357)
UniProt Q9C0B0, sequence (30-357, looked up): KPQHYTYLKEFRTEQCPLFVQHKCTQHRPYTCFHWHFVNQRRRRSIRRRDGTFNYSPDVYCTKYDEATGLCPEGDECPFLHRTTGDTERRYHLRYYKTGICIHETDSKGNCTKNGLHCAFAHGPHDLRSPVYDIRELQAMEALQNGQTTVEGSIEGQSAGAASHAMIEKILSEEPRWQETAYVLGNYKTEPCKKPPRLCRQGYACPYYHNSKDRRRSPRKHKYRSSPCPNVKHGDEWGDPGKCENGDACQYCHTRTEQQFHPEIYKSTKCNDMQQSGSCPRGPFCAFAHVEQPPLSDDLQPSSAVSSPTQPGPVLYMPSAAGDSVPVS
Method: RNA Bind-n-Seq
Form: RNA
Matrix: in vitro
Tested at: not given
Notes: RNA with constant flanks, human and mouse sites, ends assumed
Reference: input RNA pool
Direction: higher = stronger binding
Endpoint: bound/input enrichment
Constant ends, left off below: GGGAGUUCUACAGUCCGACGAUC … CAACAGAGGAUUGAGCAUCA
Strand = GUUGAUGAAAUGAUCAGGGAAGCAGAUAUUGAUGGUGAUGGUCAAGUAAACUAUGAAGAGUUUGUACAAAUGAUGACAGCAAAGUGAAGACCUUGUACAGAAUGUGUUAAAUUUCUUGUA; value = 0.204 ratio
Strand = GUUGGCUUGUCGGAUGAACUGGCUAAACUGGAUGCAUUUGUAGAAGGUGUGGUCAAGAAAGUGGCUCAGUACAUGGCUGAUGUGCUGGAGGACAGCAAAGAUAAAGUUCAGGAGAACUUG; value = 0.178 ratio
Strand = CACCCUCAGCCCAGUAUCAUCCCCCUGGAGCAGGGCUCCCCACUGGCUUCAGCAGGCCCUGGCACCUGCUCACCGGACAGCUUCUGCUGCUCUCCUGAUUCCUGCUCCGGAGCUUCUUCU; value = 0.203 ratio
Strand = CUCUCUGACUAUCAACGUGGACGAGUAGAAAAUGUAUGUAAACGACUCAAUCUCCAGCCUUUAGCUUAUCUUUGGCAAAGAAACCAGGAAGAUUUGCUCCGAGAGAUGAUAGCUUCUAAU; value = 0.316 ratio
Strand = UUAAAGAUCAGCAAUUUAAAGAAAAUUUUAAAAGGCAUCUUGGAUUACAAUCAUGAGAUUUUAGGACAGCAGAUUAAUGAUUUCACCCUUCCUGACGUGAACCUCAUUGGGGAGCAUUCG; value = 0.251 ratio
Strand = AUACAUUCUAAGGGAGCACAUGGUGAAGGUAAUUCAGUGUCAUUGGAUUUUCAGAAUUCCUUAGUGUCCAAACCAGACCCACCUCCAUCUCAGAAUAAGCCAGCAACUUUCAGACCACCA; value = 0.474 ratio
Strand = AUGUGGGAAGACAAAUGAAGGGAUUUAGAAGCCAAGUAAAUGUCAUUGGGAAGGAGAGCUACCACCACUGAGUGCUGAACAGUAAACUCAUUUUUCAGAGUUAAAAAAUUAUUUAAAAAA; value = 0.475 ratio
Strand = UCUGACCUACACACACACACACACUAAAUGUUUUAUAAAAAAAAAAAAAAAAAAAAGCCAGAGGUGGUGGCAUACAUCUUUAAUCCCAUCACUUAGGAGGCAGAGGCAGAUGGAUCUCUU; value = 6.12 ratio
Strand = GACAAAGCAGAAUUCUUCAGUUCUGAAAAUGUUAAAGUGUUUGAGUCAAUUAAUAUGGACACAAAUGACAUGUGGUUGAUGAUGAGGAAAGCUUACAAAUAUGCUUAUGAUCAAUACAGG; value = 0.104 ratio
Strand = CCUCUCCCUCCAUCCCUCAAAAGAUCUUUAUGCAUUUCCCACUACUCCCUUACUGUCUUUUAGCAUUCAGAGAAAAAGCCAACUUGCUUAAAGAGGAAUCACUUAAAAGGUAGGCAUAUC; value = 0.577 ratio
Strand = GGUUGCAGAUGUGUUGAACUUGACUGCUGGGAUGGAAAAGGUGAAGACCAAGAACCAAUAAUAACUCAUGGAAAAGCAAUGUGUACAGAUAUCCUUUUUAAGGAUGUAAUUCAAGCCAUC; value = 0.499 ratio

Sample 2
Target: UBE2N UBC core domain (UniProt P61088)
Method: yeast two-hybrid
Matrix: yeast
Notes: mostly zero background
Reference: not given
Direction: higher = stronger interaction
Endpoint: lacZ reporter activity
B1: MYCBP2 RING domain (UniProt O75592); chain TSLKQDADDMCMICFTEALSAAPAIQLDCSHIFHLQCCRRVLENRWLGPRITFGFISCPICKNKINHIVLKD
B2: TRIM31 RING domain (UniProt Q9BZY9); chain FVNKLQEEVICPICLDILQKPVTIDCGHNFCLKCITQIGETSCGFFKCPLCKTSVRKNAIRF
B3: MEX3B RING domain (UniProt Q6ZN04); chain SGLRRKGSRDCSVCFESEVIAALVPCGHNLFCMECANRICEKSEPECPVCHTAVTQAIRIF
Residues (chain): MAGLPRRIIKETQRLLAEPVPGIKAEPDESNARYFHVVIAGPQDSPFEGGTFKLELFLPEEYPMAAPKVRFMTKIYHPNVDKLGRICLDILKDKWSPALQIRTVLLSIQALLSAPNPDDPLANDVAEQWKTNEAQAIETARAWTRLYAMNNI
Sequence = YPEEVDDDLICHICLQALLDPLDTPCGHTYCTLCLTNFLVEKDFCPMDRKPLVLQHCKK (LNX1 RING domain (UniProt Q8TBB1)); value = 0
Sequence = LGTKLEAKYLCSACRNVLRRPFQAQCGHRYCSFCLASILSSGPQNCAACVHEGIYEEGIS (TRAF2 RING domain (UniProt Q12933)); value = 0
Sequence = FVKTVEDKYKCEKCHLVLCSPKQTECGHRFCESCMAALLSSSSPKCTACQESIVKDKVF (TRAF3 RING domain (UniProt Q13114)); value = 0
Sequence = B1 (MYCBP2 RING domain); value = 0
Sequence = B2 (TRIM31 RING domain); value = 0
Sequence = B3 (MEX3B RING domain); value = 0

Sample 3
Target: Sal-like protein 4, full length isoform A (SALL4, Homo sapiens, UniProt Q9UJQ4, residues 1-1053)
UniProt Q9UJQ4, sequence (whole entry, looked up): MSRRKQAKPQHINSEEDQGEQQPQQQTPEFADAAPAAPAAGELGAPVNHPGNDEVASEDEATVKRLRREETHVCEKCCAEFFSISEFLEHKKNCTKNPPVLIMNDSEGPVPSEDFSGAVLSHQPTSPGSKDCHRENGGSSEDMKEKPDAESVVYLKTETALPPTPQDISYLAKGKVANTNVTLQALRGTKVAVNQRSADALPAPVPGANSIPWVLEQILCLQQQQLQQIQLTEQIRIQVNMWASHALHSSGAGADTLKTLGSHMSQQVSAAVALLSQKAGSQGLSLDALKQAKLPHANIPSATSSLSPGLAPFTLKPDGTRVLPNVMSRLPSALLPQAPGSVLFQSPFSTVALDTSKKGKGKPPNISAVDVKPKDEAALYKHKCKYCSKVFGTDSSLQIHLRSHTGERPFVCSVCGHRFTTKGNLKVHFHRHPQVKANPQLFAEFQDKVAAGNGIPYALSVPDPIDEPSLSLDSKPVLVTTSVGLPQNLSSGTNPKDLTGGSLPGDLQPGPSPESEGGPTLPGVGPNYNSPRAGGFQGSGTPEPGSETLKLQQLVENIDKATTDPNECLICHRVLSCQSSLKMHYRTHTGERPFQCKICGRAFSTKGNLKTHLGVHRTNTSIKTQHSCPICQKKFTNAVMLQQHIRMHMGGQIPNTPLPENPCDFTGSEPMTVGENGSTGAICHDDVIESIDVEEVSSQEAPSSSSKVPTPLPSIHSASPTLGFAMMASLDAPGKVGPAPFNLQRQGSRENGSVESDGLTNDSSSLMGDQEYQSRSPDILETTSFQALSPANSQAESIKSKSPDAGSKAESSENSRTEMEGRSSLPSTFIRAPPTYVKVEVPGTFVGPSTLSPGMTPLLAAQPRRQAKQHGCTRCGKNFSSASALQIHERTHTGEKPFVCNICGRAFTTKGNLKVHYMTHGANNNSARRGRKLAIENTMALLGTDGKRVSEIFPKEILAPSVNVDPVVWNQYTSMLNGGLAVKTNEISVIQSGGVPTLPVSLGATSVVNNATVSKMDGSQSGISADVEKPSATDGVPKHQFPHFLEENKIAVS
Method: universal PBM
Form: double-stranded DNA, one strand shown
Matrix: in vitro
Tested at: 600 nM
Notes: 8-mer, flanks averaged, mean of replicates
Direction: higher = stronger binding
Endpoint: E-score
Strand = GCTAAGGA; value = -0.273
Strand = ACCTCAGC; value = -0.11
Strand = GTAAGGAA; value = -0.0404
Strand = GGCTAACA; value = -0.218
Strand = CCAGTCCA; value = -0.319
Strand = GAACACGC; value = -0.149
Strand = TCGTACGA; value = 0.133
Strand = CAGGGTGG; value = -0.211
Strand = ACTACGAT; value = 0.126
Strand = ACGACAGT; value = 0.0203
Strand = CAGGAATA; value = 0.177
Strand = ATAATTAC; value = 0.437
Strand = CCTGTCCC; value = -0.184
Strand = ACAGCTCT; value = -0.17
Strand = CCTGCTAA; value = -0.108
Strand = AGTAAATG; value = 0.152
Strand = ATTCAGTC; value = 0.0678
Strand = AGAACCGG; value = -0.208
Strand = CACATTGG; value = -0.00994
Strand = AACATTCG; value = -0.0677
Strand = GACATAAC; value = 0.239
Strand = CGATAGCA; value = -0.151
Strand = CCCCTAAA; value = -0.153

Sample 4
Target: Max dimerization protein 1, bHLH-zipper, MAX partner unstated (MXD1, Homo sapiens, UniProt Q05195, residues 56-136)
Method: protein-binding microarray
Form: double-stranded DNA, one strand shown
Matrix: in vitro
Tested at: not given
Notes: k-mer, scored over probes, only values ≥0.25
Direction: higher = stronger binding
Endpoint: E-score
Construct (chain): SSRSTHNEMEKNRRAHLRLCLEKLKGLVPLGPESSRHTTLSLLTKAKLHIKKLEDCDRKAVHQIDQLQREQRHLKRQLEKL
Strand = CGTGTCAA; value = 0.301
Strand = GTCACCAC; value = 0.252
Strand = CCACCACG; value = 0.32
Strand = CATGCTCG; value = 0.337
Strand = CATGGCGA; value = 0.265
Strand = AATGTGTG; value = 0.274
Strand = AAGCACAT; value = 0.306
Strand = ACGCGGTA; value = 0.303
Strand = ACATGGCG; value = 0.37
Strand = CCTCACGC; value = 0.294
Strand = ACCCGCCC; value = 0.359

Sample 5
Target: ABI1, truncated, D143A, DHFR fusion (Arabidopsis thaliana)
Method: DHFR PCA, deep sequencing
Matrix: yeast
Notes: methotrexate growth selection, single substitutions
Added: (+)-ABA 200 µM
Reference: wild-type fitted maximum
Direction: higher = stronger binding
Endpoint: relative binding score
Starting sequence: PYL1, truncated, DHFR fusion (Arabidopsis thaliana); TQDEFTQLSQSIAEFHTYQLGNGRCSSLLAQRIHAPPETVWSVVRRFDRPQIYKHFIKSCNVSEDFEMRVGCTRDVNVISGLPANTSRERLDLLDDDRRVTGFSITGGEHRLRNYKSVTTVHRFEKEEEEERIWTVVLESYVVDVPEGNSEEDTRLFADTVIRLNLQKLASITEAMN
Substitution = I162T; value = 26.6%
Substitution = A170D; value = 39.6%
Substitution = R123A; value = 107%
Substitution = L156R; value = 82%
Substitution = S59E; value = 102%
Substitution = S171G; value = 93.4%
Substitution = S150N; value = 90.6%
Substitution = S104P; value = -7.86%
Substitution = E139K; value = 48.2%
Substitution = T154W; value = -5.26%
Substitution = E38W; value = 89.3%
Substitution = F103D; value = -2.41%
Substitution = F157M; value = 83%

Sample 6
Target: CCNA2, cyclin fold, Cln2 fusion (human)
Method: yeast growth competition, sequencing
Matrix: yeast
Notes: strong parent motif
Reference: not given
Direction: higher = stronger binding
Endpoint: normalised enrichment score
Starting sequence: RB1 docking peptide (human); PKPLKKLRFDIEG
Substitution = P1E; value = 0.836
Substitution = K2R; value = 0.813
Substitution = P1D; value = 0.706
Substitution = L7I; value = 0.801
Substitution = R8Q; value = 1.3
Substitution = F9Q; value = 0.887
Substitution = G13W; value = 1.41
Substitution = L7E; value = -0.0921
Substitution = K5I; value = 0.328
Substitution = G13Y; value = -0.206
Substitution = I11G; value = 0.977
Substitution = R8W; value = -0.0356
Substitution = P1G; value = 0.689
Substitution = R8S; value = 1.6
Substitution = K2E; value = 0.992
Substitution = E12G; value = 2.13
Substitution = F9C; value = 0.224
Substitution = K6W; value = 1.57

Sample 7
Target: Ras GTPase-activating protein-binding protein 1, full length (G3BP1, Homo sapiens, UniProt Q13283)
UniProt Q13283, sequence (whole entry, looked up): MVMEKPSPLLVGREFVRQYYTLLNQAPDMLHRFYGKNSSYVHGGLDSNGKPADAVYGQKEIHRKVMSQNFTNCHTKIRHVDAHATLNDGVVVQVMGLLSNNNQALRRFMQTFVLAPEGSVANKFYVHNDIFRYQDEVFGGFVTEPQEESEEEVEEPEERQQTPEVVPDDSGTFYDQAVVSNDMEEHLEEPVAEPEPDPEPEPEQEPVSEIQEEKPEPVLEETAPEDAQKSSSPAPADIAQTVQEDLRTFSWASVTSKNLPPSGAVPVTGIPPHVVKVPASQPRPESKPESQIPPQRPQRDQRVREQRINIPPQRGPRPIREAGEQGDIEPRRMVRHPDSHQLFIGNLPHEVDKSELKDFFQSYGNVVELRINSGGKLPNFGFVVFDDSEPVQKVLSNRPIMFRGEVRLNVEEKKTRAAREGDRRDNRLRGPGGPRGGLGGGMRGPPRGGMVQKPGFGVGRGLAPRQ
Method: RNA Bind-n-Seq
Form: RNA
Matrix: in vitro
Tested at: 200 nM
Notes: whole 134-nt RNA, ends assumed
Added: 150 mM KCl
Reference: input library
Direction: higher = stronger binding
Endpoint: log2 enrichment
Constant ends, left off below: GGGAGUUCUACAGUCCGACGAUC … UGGAAUUCUCGGGUGUCAAGG
Strand = UGGGAGGUGGAUUUUGUUUAUUUUUUUAGCUCAUUUCCAGGGGUGGGAAUUUUUUUUUAAUAUGUGUCAUGAAUAAAGUGGUUUUUGAAA; value = 0.0989
Strand = CAAGUCCUGUGCUACACAUCGUAUGUACCGAAUCGGGGUGGGGAAAGGGGUGGGGAAAGUAUUAUGUUACGCCGUUCGGAUCUGCACUUC; value = 1.36
Strand = UGUCAGGAUUAUGAAGAAGCUGUGCUCUUGCUGUUAGAAGGAGCUGCCUGGGAAGAAGCUUUGAGGCUGGUAAGAAUCUUGUAAAUCCUC; value = -1.13
Strand = UUUGCUGUUGUUAACCAUCAAGGGACCUUGGAGAGUGGCCACUACACCAGCUUUAUCCGGCAGCACAAAGACCAGUGGUUCAAGUGUGAC; value = -1.03
Strand = AGUCCUGUGCUACACAUCGUAUGUACCGAAUCGGAAAAAGGGAAAAAGGGAAAAAGGGAAAGUAUUAUGUUACGCCGUUCGGAUCUGCAC; value = -1.03
Strand = AAGUCCUGUGCUACACAUCGUAUGUACCGAAUCGGGAAAGGGUUUUUGGGUUUGGGAAAGUAUUAUGUUACGCCGUUCGGAUCUGCACUU; value = 0.176
Strand = AAGUCCUGUGCUACACAUCGUAUGUACCGAAUCGGGAAAAGGGAAAAGGAAAAGGGAAAGUAUUAUGUUACGCCGUUCGGAUCUGCACUU; value = -0.693
Strand = AAAAGACAACACGCACCCACACAGACACAGAGGGAAGGGGUUGGGAUGGGGACAGGGUGCACAGCAGGGCGGGGUAGGACCCCAGCCCCU; value = 1.78
Strand = CCUCAAGUCCUGUGCUACACAUCGUAUGUACCGAAUCGGGGAGGGGAGGGAGGAAAGUAUUAUGUUACGCCGUUCGGAUCUGCACUUCCA; value = 0.887
